Measurements collected from several papers.
Compare with care: the assays were run in different laboratories.
B1: DIS3 D551N (Saccharomyces cerevisiae, UniProt Q08162); sequence looked up; chain MSVPAIAPRRKRLADGLSVTQKVFVRSRNGGATKIVREHYLRSDIPCLSRSCTKCPQIVVPDAQNELPKFILSDSPLELSAPIGKHYVVLDTNVVLQAIDLLENPNCFFDVIVPQIVLDEVRNKSYPVYTRLRTLCRDSDDHKRFIVFHNEFSEHTFVERLPNETINDRNDRAIRKTCQWYSEHLKPYDINVVLVTNDRLNREAATKEVESNIITKSLVQYIELLPNADDIRDSIPQMDSFDKDLERDTFSDFTFPEYYSTARVMGGLKNGVLYQGNIQISEYNFLEGSVSLPRFSKPVLIVGQKNLNRAFNGDQVIVELLPQSEWKAPSSIVLDSEHFDVNDNPDIEAGDDDDNNESSSNTTVISDKQRRLLAKDAMIAQRSKKIQPTAKVVYIQRRSWRQYVGQLAPSSVDPQSSSTQNVFVILMDKCLPKVRIRTRRAAELLDKRIVISIDSWPTTHKYPLGHFVRDLGTIESAQAETEALLLEHDVEYRPFSKKVLECLPAEGHDWKAPTKLDDPEAVSKDPLLTKRKDLRDKLICSIDPPGCVDINDALHAKKLPNGNWEVGVHIADVTHFVKPGTALDAEGAARGTSVYLVDKRIDMLPMLLGTDLCSLKPYVDRFAFSVIWELDDSANIVNVNFMKSVIRSREAFSYEQAQLRIDDKTQNDELTMGMRALLKLSVKLKQKRLEAGALNLASPEVKVHMDSETSDPNEVEIKKLLATNSLVEEFMLLANISVARKIYDAFPQTAMLRRHAAPPSTNFEILNEMLNTRKNMSISLESSKALADSLDRCVDPEDPYFNTLVRIMSTRCMMAAQYFYSGAYSYPDFRHYGLAVDIYTHFTSPIRRYCDVVAHRQLAGAIGYEPLSLTHRDKNKMDMICRNINRKHRNAQFAGRASIEYYVGQVMRNNESTETGYVIKVFNNGIVVLVPKFGVEGLIRLDNLTEDPNSAAFDEVEYKLTFVPTNSDKPRDVYVFDKVEVQVRSVMDPITSKRKAELLLK
B2: erenumab; V domains shown; sequence looked up; VH QVQLVESGGGVVQPGRSLRLSCAASGFTFSSFGMHWVRQAPGKGLEWVAVISFDGSIKYSVDSVKGRFTISRDNSKNTLFLQMNSLRAEDTAVYYCARDRLNYYDSSGYYHYKYYGMAVWGQGTTVTVSS; VL QSVLTQPPSVSAAPGQKVTISCSGSSSNIGNNYVSWYQQLPGTAPKLLIYDNNKRPSGIPDRFSGSKSGTSTTLGITGLQTGDEADYYCGTWDSRLSAVVFGGGTKLTVL
B3: TIMP3 24-144 (Homo sapiens, UniProt P35625); sequence looked up; chain CTCSPSHPQDAFCNSDIVIRAKVVGKKLVKEGPFGTLVYTIKQMKMYRGFTKMPHVQYIHTEASESLCGLKLEVNKYQYLLTGRVYDGKMYTGLCNFVERWDQLTLSQRKGLNYRYHLGCN
UniProt P23818, sequence (whole entry, looked up): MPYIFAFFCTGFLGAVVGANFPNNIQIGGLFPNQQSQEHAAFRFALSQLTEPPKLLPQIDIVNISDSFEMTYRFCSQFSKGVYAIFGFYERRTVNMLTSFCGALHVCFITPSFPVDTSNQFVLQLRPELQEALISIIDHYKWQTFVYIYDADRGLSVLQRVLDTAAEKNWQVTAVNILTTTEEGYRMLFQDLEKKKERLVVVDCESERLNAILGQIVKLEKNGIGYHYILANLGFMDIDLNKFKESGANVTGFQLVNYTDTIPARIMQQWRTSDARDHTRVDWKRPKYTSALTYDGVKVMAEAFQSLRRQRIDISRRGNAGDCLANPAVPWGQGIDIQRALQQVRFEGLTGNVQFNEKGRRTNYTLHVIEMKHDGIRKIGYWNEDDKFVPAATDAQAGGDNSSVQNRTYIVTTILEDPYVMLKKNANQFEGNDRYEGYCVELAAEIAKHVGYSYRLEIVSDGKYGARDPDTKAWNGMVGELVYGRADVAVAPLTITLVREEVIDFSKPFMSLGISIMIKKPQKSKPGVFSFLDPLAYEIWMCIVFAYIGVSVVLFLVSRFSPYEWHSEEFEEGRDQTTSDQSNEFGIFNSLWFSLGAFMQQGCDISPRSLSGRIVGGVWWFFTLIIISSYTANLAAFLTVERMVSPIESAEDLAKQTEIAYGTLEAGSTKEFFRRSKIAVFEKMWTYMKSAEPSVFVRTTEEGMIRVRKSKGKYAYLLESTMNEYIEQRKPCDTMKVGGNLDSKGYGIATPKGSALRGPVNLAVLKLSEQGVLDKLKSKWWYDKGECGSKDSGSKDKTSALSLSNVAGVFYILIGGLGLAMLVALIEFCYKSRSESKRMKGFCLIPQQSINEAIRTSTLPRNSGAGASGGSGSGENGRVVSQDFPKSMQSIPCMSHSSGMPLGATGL
UniProt Q6PDX6, sequence (whole entry, looked up): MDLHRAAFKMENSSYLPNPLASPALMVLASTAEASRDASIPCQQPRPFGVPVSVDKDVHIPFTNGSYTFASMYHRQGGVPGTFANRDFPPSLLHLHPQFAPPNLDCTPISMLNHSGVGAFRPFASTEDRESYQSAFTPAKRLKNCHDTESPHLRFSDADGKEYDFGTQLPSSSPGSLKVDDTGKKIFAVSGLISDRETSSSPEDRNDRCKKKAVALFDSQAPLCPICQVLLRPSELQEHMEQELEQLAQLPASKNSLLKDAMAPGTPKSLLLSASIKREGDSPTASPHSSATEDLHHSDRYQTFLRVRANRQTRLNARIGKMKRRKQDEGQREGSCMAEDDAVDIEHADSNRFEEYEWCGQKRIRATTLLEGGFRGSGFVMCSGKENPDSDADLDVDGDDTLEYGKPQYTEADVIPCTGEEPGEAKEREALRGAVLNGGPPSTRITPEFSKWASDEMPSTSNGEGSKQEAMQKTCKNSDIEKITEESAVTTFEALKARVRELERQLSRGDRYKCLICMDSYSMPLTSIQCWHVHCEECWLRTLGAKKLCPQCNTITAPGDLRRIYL
UniProt O60656, sequence (whole entry, looked up): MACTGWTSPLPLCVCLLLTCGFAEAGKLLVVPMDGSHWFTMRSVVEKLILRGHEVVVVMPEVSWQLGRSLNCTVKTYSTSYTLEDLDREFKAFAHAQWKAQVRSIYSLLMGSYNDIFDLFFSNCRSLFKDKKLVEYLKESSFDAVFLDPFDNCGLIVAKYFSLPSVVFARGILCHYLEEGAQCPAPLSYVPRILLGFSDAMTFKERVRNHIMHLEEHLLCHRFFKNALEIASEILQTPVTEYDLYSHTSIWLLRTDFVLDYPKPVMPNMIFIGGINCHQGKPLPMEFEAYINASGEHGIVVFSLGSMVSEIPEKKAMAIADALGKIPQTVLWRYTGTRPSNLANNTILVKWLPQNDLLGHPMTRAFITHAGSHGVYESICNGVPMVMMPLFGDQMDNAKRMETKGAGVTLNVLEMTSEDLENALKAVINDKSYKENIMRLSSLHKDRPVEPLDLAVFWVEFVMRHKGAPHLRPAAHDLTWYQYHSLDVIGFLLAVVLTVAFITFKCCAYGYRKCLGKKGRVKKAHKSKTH
UniProt P01031, sequence (whole entry, looked up): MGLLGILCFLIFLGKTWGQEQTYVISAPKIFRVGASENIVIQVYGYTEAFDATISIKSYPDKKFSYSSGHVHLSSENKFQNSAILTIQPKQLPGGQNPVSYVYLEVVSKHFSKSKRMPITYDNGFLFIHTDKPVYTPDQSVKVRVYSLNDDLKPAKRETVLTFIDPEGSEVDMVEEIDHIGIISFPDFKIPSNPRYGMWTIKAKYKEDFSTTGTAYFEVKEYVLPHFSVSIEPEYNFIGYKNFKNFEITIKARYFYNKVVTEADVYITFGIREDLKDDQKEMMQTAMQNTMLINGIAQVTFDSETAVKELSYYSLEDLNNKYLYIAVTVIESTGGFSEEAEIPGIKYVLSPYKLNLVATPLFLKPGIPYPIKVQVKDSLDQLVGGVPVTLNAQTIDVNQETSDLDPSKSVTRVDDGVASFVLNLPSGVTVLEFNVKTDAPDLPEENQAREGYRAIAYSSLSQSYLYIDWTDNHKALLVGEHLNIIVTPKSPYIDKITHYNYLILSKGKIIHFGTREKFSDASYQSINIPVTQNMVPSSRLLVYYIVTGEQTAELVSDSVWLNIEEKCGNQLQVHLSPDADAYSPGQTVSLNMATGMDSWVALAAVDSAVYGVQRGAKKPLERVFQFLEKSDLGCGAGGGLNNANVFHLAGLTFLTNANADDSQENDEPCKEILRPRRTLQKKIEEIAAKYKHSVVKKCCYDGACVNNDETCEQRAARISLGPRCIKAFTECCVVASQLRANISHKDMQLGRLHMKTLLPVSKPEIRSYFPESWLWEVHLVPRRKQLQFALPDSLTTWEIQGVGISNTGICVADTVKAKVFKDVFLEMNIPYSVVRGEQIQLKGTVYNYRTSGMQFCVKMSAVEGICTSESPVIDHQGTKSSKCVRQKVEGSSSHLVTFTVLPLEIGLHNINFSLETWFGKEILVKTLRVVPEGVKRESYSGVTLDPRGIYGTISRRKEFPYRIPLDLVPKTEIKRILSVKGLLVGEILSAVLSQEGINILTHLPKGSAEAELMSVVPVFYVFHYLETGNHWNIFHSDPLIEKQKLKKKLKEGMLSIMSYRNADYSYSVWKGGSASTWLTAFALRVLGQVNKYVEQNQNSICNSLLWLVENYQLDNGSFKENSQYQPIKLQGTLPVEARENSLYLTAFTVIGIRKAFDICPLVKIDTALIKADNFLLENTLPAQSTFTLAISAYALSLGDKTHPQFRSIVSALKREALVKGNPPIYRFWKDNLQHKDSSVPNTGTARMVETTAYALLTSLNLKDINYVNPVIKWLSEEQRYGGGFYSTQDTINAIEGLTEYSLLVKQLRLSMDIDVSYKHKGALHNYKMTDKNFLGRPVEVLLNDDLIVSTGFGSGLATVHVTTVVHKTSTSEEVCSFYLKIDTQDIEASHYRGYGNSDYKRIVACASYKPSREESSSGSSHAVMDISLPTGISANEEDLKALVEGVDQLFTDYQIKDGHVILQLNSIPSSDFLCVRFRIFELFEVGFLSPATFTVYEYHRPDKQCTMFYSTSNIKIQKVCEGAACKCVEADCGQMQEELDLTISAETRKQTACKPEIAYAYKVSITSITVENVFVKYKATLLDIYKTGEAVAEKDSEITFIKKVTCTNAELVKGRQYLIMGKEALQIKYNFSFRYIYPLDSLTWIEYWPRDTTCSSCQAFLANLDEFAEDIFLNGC
UniProt P21730, sequence (whole entry, looked up): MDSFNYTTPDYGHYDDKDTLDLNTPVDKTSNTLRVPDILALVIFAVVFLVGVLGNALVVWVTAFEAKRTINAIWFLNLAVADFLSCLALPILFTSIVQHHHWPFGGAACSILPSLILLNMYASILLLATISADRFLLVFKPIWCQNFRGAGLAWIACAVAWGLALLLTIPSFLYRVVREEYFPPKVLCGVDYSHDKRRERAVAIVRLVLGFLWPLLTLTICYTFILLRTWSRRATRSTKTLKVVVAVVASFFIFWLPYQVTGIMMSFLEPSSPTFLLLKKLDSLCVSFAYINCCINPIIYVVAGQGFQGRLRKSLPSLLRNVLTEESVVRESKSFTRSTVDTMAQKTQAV
UniProt P39875, sequence (whole entry, looked up): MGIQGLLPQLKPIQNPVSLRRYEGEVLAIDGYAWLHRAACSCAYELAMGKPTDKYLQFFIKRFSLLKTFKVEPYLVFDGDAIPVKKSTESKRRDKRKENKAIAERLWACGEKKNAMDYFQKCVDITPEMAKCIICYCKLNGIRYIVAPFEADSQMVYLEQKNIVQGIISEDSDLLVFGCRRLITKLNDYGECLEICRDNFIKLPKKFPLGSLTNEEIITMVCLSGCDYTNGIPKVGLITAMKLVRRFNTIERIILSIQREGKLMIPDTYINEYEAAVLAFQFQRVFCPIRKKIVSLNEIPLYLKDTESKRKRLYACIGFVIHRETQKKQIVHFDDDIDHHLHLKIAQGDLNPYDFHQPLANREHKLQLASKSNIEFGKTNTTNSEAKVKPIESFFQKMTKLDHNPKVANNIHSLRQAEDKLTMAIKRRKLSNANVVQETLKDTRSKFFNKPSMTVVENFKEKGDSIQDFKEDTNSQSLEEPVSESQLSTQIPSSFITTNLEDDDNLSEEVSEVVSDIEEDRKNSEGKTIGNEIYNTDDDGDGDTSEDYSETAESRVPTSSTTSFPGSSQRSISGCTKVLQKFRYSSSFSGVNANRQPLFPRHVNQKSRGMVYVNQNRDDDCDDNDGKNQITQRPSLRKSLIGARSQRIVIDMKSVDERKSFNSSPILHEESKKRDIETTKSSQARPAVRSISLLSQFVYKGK

Substance | tested on | assay | test system | conditions | scale | quantity | result
CALM1 holo (Homo sapiens, UniProt P0DP23) | Nos1 (Rattus norvegicus, UniProt P29476) | optical stopped-flow |  | CaM not pre-bound, added: NADPH, holo CaM |  | flavin reduction rate, fast phase | 132 s⁻¹
UGT1A9 (Homo sapiens, UniProt O60656) | COc1cccc(-c2oc3ccccc3c(=O)c2O)c1 | steady-state kinetics |  | pH 7.4, 37 °C |  | Vmax | 0.0029 µmol/min/mg
ADM2 fragment (Homo sapiens) | CALCRL/RAMP1 whole, on cells (Homo sapiens) | cAMP, antagonist, CAMYEL BRET | COS-7 | 100 nM agonist |  | cAMP decay time constant | 4.44 min
HSDGTFTSELSRLREGARLQRLL (SCT 1-23 (Homo sapiens)) | SCTR SNAP-tag fusion, Lumi4-Tb label on SNAP-tag (UniProt P47872) | Ca2+ flux, agonist | peptide, CHO-K1 |  |  | EC50 | 581 nM
B1 (DIS3 D551N) | CSL4/RRP4/RRP40/RRP41/RRP42/RRP46/RRP43/RRP45/MTR3 Exo9 core (Saccharomyces cerevisiae) | polyA RNA endoribonuclease degradation |  |  | relative to: Rrp44 exo- alone, higher = faster | relative initial rate | 13 fold
TIMP2 N-terminal domain S4E/V6R/V18M/I35V/N38Q/S68N/V71N/H97R | MMP14 fragment (Homo sapiens) | fluorogenic substrate cleavage, inhibitor, enzyme inhibition assay |  | apparent |  | Ki | 0.89 nM
C5a mature (Homo sapiens, UniProt P01031) | C5AR1 (Homo sapiens, UniProt P21730) | antagonist, XTT assay | HMDMs | 24 h, added: PMX205 10 µM | relative to: vehicle 50%, higher = more survival | C. albicans survival | 78%
NRTN fragment (Homo sapiens) | RET 29-635 (Homo sapiens, UniProt P07949) | MAPK signaling, SRE luciferase reporter, agonist | TGW neuroblastoma |  | higher = stronger signal | maximal luciferase signal | 168000 RLU
B2 (erenumab) | CALCR/RAMP1 on cells (Homo sapiens) | cAMP production, antagonist, Schild analysis | antibody, Cos7 | added: αCGRP |  | pKB | 7.04
B3 (TIMP3 24-144) | ADAMTS5 262-930 (Homo sapiens, UniProt Q9UNA0) | inhibitor, steady-state kinetics |  | 1 h, pH 7.5, 37 °C |  | Ki | 0.13 nM
Rnf220 (Mus musculus, UniProt Q6PDX6) | Gria1 (Mus musculus, UniProt P23818) | GluA1 polyubiquitination | HEK293 |  | relative to: control without RNF220, higher = more ubiquitination | polyubiquitination level | 4.41
WRN (Homo sapiens, UniProt Q14191) | EXO1 (Saccharomyces cerevisiae, UniProt P39875) | co-IP | yeast | 6 h, added: MMS 0.3 mM | relative to: untreated cells, higher = more co-precipitation | relative co-IP | 1.7 fold
PIN1 (Homo sapiens, UniProt Q13526) | Grm5 C-terminal tail, pT1123/pS1126 | cis/trans isomerisation of pS1126-P, ZZ-exchange NMR |  | 20 µM Pin1, 25 °C |  | kcat | 1140 s⁻¹
TPDYAMQLMNDKKLMSSLPNFSGIFNHLERLLDEEISRVRKDMYNDTLNGSTEK (Qki 14-67 C35S/L18A (Mus musculus, UniProt Q9QYS9)) | itself | CD thermal melting |  | 50 µM |  | melting temperature | 49 °C

A few entries again:
Substance | tested on | assay | test system | conditions | scale | quantity | result
TIMP2 N-terminal domain S4E/V6R/V18M/I35V/N38Q/S68N/V71N/H97R | MMP14 fragment (Homo sapiens) | fluorogenic substrate cleavage, inhibitor, enzyme inhibition assay |  | apparent |  | Ki | 0.89 nM
C5a mature (Homo sapiens, UniProt P01031) | C5AR1 (Homo sapiens, UniProt P21730) | antagonist, XTT assay | HMDMs | 24 h, added: PMX205 10 µM | relative to: vehicle 50%, higher = more survival | C. albicans survival | 78%
